Experimental data collected from several papers.
A part holds a random share of what one study measured. Values joined by “and” are separate records of one study, mostly repeats; a detail may differ.
Chain of UniProt Q9UBF8 (whole entry, looked up): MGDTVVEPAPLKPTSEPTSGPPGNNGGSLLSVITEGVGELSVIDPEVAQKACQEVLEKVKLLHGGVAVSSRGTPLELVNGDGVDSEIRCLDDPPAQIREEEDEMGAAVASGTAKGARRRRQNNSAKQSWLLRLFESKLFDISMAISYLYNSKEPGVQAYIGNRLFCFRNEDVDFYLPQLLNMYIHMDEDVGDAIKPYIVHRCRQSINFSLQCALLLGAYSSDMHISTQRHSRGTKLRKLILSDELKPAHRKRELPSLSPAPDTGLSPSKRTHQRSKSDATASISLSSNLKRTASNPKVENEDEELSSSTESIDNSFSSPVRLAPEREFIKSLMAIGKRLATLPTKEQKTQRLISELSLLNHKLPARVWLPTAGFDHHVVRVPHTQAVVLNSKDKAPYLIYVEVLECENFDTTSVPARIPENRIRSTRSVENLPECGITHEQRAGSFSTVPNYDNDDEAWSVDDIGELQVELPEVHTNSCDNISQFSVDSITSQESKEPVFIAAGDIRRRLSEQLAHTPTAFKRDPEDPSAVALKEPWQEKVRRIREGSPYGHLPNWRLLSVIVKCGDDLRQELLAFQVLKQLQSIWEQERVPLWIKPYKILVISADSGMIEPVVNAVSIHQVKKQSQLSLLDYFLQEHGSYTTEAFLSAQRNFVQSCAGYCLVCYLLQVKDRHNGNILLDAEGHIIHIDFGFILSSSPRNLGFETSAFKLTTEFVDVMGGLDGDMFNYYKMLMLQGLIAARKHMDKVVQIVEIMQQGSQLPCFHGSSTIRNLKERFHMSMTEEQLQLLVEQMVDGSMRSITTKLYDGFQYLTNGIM
Chain of UniProt Q14680 (whole entry, looked up): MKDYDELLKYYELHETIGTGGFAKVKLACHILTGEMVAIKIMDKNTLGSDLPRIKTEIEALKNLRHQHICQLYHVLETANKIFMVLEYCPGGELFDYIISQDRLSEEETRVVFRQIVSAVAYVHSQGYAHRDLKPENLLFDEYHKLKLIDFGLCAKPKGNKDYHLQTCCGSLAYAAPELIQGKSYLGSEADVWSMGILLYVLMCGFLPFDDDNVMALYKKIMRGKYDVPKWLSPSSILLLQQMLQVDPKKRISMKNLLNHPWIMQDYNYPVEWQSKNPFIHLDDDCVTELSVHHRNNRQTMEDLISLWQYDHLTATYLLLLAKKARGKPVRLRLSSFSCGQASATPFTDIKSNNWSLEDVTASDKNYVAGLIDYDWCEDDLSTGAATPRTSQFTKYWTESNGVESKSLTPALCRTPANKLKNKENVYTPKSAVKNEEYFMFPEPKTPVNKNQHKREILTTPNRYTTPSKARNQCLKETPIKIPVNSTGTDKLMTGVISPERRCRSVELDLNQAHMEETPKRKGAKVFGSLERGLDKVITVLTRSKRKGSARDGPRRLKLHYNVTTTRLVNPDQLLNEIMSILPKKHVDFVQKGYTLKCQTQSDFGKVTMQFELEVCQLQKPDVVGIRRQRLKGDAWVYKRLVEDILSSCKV
Chain of UniProt Q13188 (whole entry, looked up): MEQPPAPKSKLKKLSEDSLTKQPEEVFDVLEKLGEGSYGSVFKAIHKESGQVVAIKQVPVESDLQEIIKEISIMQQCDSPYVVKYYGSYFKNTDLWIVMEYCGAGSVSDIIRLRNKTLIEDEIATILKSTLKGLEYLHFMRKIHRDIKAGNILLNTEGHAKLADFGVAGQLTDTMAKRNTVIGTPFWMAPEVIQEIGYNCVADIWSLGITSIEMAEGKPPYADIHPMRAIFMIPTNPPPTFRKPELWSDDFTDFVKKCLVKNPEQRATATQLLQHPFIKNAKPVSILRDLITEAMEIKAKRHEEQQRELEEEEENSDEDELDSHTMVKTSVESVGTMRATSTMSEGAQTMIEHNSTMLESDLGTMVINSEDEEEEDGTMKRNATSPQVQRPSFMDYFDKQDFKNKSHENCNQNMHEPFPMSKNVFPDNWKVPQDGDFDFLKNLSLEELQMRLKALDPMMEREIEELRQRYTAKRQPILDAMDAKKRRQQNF
Chain of UniProt Q02156 (whole entry, looked up): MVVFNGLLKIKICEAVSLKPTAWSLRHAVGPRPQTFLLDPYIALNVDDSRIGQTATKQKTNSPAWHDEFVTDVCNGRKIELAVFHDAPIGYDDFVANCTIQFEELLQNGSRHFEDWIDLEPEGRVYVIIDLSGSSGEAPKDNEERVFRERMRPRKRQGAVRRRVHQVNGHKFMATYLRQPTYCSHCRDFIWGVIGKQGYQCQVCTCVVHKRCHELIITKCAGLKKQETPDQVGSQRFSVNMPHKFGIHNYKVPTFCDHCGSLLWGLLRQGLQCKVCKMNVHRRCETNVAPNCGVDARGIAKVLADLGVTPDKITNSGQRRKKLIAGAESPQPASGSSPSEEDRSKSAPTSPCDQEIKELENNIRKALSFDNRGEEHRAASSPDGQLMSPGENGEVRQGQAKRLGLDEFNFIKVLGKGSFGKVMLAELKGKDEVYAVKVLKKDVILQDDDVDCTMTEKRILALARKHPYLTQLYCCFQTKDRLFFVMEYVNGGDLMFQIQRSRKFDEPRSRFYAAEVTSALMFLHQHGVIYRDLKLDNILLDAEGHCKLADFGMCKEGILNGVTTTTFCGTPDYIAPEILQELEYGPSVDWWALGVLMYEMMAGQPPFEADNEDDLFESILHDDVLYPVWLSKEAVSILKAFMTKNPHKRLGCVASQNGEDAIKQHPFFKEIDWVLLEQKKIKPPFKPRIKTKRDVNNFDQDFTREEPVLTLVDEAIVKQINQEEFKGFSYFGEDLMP
Chain of UniProt P23458 (whole entry, looked up): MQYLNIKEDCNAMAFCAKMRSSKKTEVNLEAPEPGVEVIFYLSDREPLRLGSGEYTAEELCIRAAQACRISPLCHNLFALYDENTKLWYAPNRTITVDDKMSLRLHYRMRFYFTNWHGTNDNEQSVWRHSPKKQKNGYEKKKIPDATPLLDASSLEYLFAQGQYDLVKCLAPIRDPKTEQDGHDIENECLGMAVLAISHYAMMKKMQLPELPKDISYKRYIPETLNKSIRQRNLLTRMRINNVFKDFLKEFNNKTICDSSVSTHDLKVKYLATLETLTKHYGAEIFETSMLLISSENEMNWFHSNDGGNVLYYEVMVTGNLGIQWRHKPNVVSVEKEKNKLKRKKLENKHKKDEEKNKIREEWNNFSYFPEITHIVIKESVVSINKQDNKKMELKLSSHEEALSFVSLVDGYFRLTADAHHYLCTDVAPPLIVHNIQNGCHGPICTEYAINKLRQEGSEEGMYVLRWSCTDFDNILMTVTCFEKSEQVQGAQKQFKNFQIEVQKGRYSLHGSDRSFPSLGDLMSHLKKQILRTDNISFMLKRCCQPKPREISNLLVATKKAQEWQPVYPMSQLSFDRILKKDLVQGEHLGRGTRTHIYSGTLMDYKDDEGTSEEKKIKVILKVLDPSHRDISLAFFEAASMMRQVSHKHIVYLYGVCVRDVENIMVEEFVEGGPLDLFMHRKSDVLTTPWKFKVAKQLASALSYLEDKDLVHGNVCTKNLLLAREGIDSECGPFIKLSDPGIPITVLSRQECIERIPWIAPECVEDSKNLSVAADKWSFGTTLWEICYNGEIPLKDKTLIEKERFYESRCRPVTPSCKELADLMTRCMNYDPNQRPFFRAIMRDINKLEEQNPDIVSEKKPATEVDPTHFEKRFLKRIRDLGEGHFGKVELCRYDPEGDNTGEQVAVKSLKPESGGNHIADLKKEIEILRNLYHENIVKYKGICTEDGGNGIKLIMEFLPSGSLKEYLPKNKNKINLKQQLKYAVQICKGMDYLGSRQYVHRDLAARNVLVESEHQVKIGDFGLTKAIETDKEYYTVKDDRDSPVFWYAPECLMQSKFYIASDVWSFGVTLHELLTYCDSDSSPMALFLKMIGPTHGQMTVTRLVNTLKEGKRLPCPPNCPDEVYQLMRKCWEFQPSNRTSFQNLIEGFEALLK
Chain of UniProt Q00535 (whole entry, looked up): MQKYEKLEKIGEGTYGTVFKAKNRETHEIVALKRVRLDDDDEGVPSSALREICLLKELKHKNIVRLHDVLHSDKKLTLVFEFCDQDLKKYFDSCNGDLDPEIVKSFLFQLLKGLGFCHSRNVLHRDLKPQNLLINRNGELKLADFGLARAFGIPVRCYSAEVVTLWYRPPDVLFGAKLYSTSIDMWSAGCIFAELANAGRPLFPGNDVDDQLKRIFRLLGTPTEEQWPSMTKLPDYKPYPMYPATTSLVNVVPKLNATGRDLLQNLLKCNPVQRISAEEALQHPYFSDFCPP
Chain of UniProt Q8TBX8 (whole entry, looked up): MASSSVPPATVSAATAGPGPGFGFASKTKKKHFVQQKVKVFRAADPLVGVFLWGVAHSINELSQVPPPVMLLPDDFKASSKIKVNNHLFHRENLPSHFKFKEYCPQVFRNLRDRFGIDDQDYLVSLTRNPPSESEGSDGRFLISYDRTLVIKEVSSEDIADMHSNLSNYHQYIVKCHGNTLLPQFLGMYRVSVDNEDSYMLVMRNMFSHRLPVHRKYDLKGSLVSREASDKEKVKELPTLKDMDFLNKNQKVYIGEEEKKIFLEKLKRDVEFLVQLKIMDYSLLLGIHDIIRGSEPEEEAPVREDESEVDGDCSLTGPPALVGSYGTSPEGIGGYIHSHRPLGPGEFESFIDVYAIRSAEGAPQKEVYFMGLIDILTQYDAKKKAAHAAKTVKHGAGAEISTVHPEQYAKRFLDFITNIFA

Study 1 — observed: cell-free assay; technique: competition with immobilised ligand; concentration: 1 µM
SMILES: Cn1cncc1[C@@](O)(COc1ccc(C#N)cc1-c1ccc(OC(F)(F)F)cc1)c1ccc(C#N)cc1
| target | remaining binding [%] |
| --- | --- |
| 5'-AMP-activated protein kinase catalytic subunit alpha-1 (PRKAA1, Homo sapiens, UniProt Q13131) | 100 |
| Phosphatidylinositol 5-phosphate 4-kinase type-2 gamma (PIP4K2C, Homo sapiens, UniProt Q8TBX8) | 96 |
| Phosphatidylinositol 4-phosphate 5-kinase type-1 gamma (PIP5K1C, Homo sapiens, UniProt O60331) | 100 |
| Serine/threonine-protein kinase Nek11 (NEK11, Homo sapiens, UniProt Q8NG66) | 100 |
| Tyrosine-protein kinase ABL1, non-phosphorylated (ABL1, Homo sapiens, UniProt P00519, T315I) | 100 |
| Serine/threonine-protein kinase LATS2 (LATS2, Homo sapiens, UniProt Q9NRM7) | 100 |
| Tyrosine-protein kinase ABL1, phosphorylated (ABL1, Homo sapiens, UniProt P00519, M351T) | 6.2 |
| Cyclin-dependent kinase 11B (CDK11B, Homo sapiens, UniProt P21127) | 92 |
| Phosphatidylinositol 4-kinase beta (PI4KB, Homo sapiens, UniProt Q9UBF8) | 80 |
| Tyrosine-protein kinase JAK1, JH2 (JAK1, Homo sapiens, UniProt P23458) | 92 |
| Phosphatidylinositol 4,5-bisphosphate 3-kinase catalytic subunit alpha isoform (PIK3CA, Homo sapiens, UniProt P42336, I800L) | 84 |
| Protein kinase C iota type (PRKCI, Homo sapiens, UniProt P41743) | 100 |
| NUAK family SNF1-like kinase 1 (NUAK1, Homo sapiens, UniProt O60285) | 100 |
| Protein kinase C epsilon type (PRKCE, Homo sapiens, UniProt Q02156) | 100 |
| Serine/threonine-protein kinase 3 (STK3, Homo sapiens, UniProt Q13188) | 95 |
| Ribosomal protein S6 kinase alpha-4, C-terminal kinase domain (RPS6KA4, Homo sapiens, UniProt O75676) | 93 |
| Ankyrin repeat and protein kinase domain-containing protein 1 (ANKK1, Homo sapiens, UniProt Q8NFD2) | 100 |
| Ephrin type-B receptor 1 (EPHB1, Homo sapiens, UniProt P54762) | 100 |

Study 2 — technique: CCK-8
SMILES: CC[C@@H](C)c1nc2cc(Nc3ccnc4ccc(S(=O)(=O)C(C)C)cc34)ccc2s1.Cl
| cell line | concentration | added | survival |
| --- | --- | --- | --- |
| L929 RIPK3-/- reexpressing RIPK3 K51A | 12.5 µM | zVAD | 99.5% and 114% and 102% |
| L929 RIPK3-/- reexpressing RIPK3 K51A/R69H | 1.563 µM |  | 98% and 99.1% and 90.2% and 97.7% |
| L929 RIPK3-/- reexpressing RIPK3 K51A | 1.563 µM |  | 101% and 87.7% and 102% and 89.4% and 94.1% |
| L929 RIPK3-/- reexpressing RIPK3 K51A | 1.563 µM | zVAD | 99.6% and 102% and 97.9% and 99.8% and 90.9% |
| L929 RIPK3-/- reexpressing RIPK3 K51A | 3.125 µM | zVAD | 90.3% and 93.9% and 88% and 102% and 100% |

Study 3 — observed: enzyme activity; mode: inhibitor; concentration: 10 µM
Target: Calcium/calmodulin-dependent protein kinase type II subunit alpha (CAMK2A, Homo sapiens, UniProt Q9UQM7)
Chain of UniProt Q9UQM7 (whole entry, looked up): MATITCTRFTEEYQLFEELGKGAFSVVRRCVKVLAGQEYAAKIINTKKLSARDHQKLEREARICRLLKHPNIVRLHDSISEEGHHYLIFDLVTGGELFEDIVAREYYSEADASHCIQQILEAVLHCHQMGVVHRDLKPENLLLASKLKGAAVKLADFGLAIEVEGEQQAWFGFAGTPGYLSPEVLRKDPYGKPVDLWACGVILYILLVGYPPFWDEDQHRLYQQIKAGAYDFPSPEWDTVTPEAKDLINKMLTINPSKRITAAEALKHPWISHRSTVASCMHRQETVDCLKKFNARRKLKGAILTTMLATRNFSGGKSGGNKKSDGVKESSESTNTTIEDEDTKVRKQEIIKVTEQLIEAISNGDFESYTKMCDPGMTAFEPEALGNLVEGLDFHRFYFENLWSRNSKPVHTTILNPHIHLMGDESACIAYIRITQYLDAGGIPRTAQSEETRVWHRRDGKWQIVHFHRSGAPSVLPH
| SMILES | inhibition [%] |
| --- | --- |
| C[C@]12CC[C@H](OS(=O)(=O)O)CC1=CC[C@@H]1[C@@H]2CC[C@]2(C)C(=O)CC[C@@H]12 | -17 |
| CC(=O)O[C@H]1C[C@]2(O)[C@@H]3CC[C@@H]4C[C@@H](O)CC[C@]4(C)[C@H]3CC[C@]2(C)[C@H]1c1ccc(=O)oc1 | 26 |
| CN1C(=O)COc2c(C(=O)NC3CN4CCC3CC4)cc(Cl)cc21 (stereo not drawn) | -8 |
| CCc1c2c(nc3ccccc13)-c1cc3c(c(=O)n1C2)COC(=O)[C@]3(O)CC | -108 |
| CN=C(N)N | -58 |

Study 4 — observed: enzyme activity; mode: inhibitor; concentration: 0.5 µM; baseline: control
SMILES: O=C1NC(=O)c2c1c1c3ccccc3n3c1c1c2c2ccccc2n1[C@H]1CC[C@@H]3O1
| target | remaining activity [%] |
| --- | --- |
| Maternal embryonic leucine zipper kinase (MELK, Homo sapiens, UniProt Q14680) | 7.13 |
| Activin receptor type-1-like (ACVRL1, Homo sapiens, UniProt P37023) | 78.6 |
| Serine/threonine-protein kinase PAK 5 (PAK5, Homo sapiens, UniProt Q9P286) | 64.7 |
| Cyclin-dependent kinase 5, with p35 (CDK5, Homo sapiens, UniProt Q00535) | 23.3 |
| Serine/threonine-protein kinase MARK1 (MARK1, Homo sapiens, UniProt Q9P0L2) | 10.4 |

Study 5 — cell line: A-375; concentration: 100 µM; time: 36 h
| SMILES | viability [%] |
| --- | --- |
| CC(CCc1ccccc1)NC(C)C(O)c1ccc(O)cc1 (stereo not drawn) | 70 |
| O=C1CC[C@@]2(O)[C@H]3Cc4ccc(O)c5c4[C@@]2(CCN3CC2CC2)[C@H]1O5 | 109 |
| C#C[C@]1(O)C=C[C@H]2[C@@H]3CCC4=CC(=O)CC[C@@H]4[C@H]3CC[C@@]21CC | 15.6 |

Repeated from above (study 1):
| target | remaining binding [%] |
| --- | --- |
| Phosphatidylinositol 4-kinase beta (PI4KB, Homo sapiens, UniProt Q9UBF8) | 80 |
| Ephrin type-B receptor 1 (EPHB1, Homo sapiens, UniProt P54762) | 100 |
| Serine/threonine-protein kinase 3 (STK3, Homo sapiens, UniProt Q13188) | 95 |
| Ankyrin repeat and protein kinase domain-containing protein 1 (ANKK1, Homo sapiens, UniProt Q8NFD2) | 100 |
| Phosphatidylinositol 4,5-bisphosphate 3-kinase catalytic subunit alpha isoform (PIK3CA, Homo sapiens, UniProt P42336, I800L) | 84 |
| Serine/threonine-protein kinase LATS2 (LATS2, Homo sapiens, UniProt Q9NRM7) | 100 |
